Published values pooled from the literature.
Compare with care: the assays were run in different laboratories. Values joined by “and” are separate records of one study, mostly repeats; a detail may differ. Numbers after ± are the reported error.

N[C@@H](Cc1ccccc1)C(=O)N[C@@H](CO)C(=O)N[C@@H](CO)C(=O)N[C@@H](CCC(=O)O)C(=O)O  serum ALT and AST (C57BL/6 mice, acetaminophen liver injury; intraperitoneal, 50 or 500 µg/mouse, 24 h, with: acetaminophen 400 mg/kg; baseline: control peptide): decreased
COc1ccc(C2CC(c3ccc(C)cc3)=Nc3ccccc3S2)cc1 (centres unmarked)  blood glucose (Wistar rat, STZ-induced diabetes; oral, 20 mg/kg once daily, day 28): 105 mg/dL
Cc1c(C(=O)Nc2ccn(C)n2)ncn1Cc1cccc(C(F)(F)F)c1  BiP protein level (western blot; human WT αS transgenic mouse, cortex; dose not given; baseline: placebo): decreased
Cc1ccc(C(=O)Nc2ccc(CP(=O)(O)O)cc2CP(=O)(O)O)cc1NC(=O)c1cccc(NC(=O)Nc2cccc(C(=O)Nc3cc(C(=O)Nc4ccc(CP(=O)(O)O)cc4CP(=O)(O)O)ccc3C)c2)c1  clotting time ratio (aPTT; FXI-deficient human plasma; 233 to 467 µM, with: 2.4 nM factor XIa; baseline: untreated): 1.04 to 1.94 fold
CC(CCC(=O)NCc1ccc(C(=O)NO)cc1)C1CCC2C3C(O)CC4CC(O)CCC4(C)C3CCC12C (centres unmarked)  kidney to body weight ratio (PCK rats; oral gavage, 15 mg/kg/day, 5 months; baseline: untreated): decreased
O=C(/C=C/c1ccccc1)OCCCC[P+](c1ccccc1)(c1ccccc1)c1ccccc1  lipid peroxidation inhibition (TBARS; energized rat liver mitochondria; 6 µM, with: FeCl2/ascorbate): no effect
C[C@H]1CN(C(=O)c2cn(-c3ccnc(N)n3)c3cc(C#CC4(O)CCCCC4)ccc23)CCN1  mice with lung metastases (B16-BL6, mice, lung metastasis model; intravenous, 50 mg/kg daily): 9.2%
OCc1cnn(-c2ccccc2)n1  clotting time (plasma recalcification time; human plasma; 1 µM): 260 ± 10 s
Cc1cc(Nc2cc3ncccc3c(N[C@@H]3C[C@H]4CC[C@@H](C3)N4CCC#N)n2)n[nH]1  endoscopic response (moderate-severe ulcerative colitis patients; 80 mg, day 28; baseline: patients): 20%
Nn1c(S)nnc1CCN(c1ccc(Cl)cc1)S(=O)(=O)c1ccccc1  inhibition (paw oedema; rat carrageenan oedema; 200 mg/kg, 3 h): 51.4%
O=C(O)c1ccc(/C=C2\SC(=S)N(Cc3cccc(C(F)(F)F)c3)C2=O)cc1  IL-1β production (Nlrp3-/- mouse, Listeria infection; 40 mg/kg): no effect
CC(C)C[C@H](NC(=O)[C@H](Cc1ccccc1)NC(=O)[C@H](Cc1c[nH]cn1)NC(=O)CNC(=O)[C@H](CC(C)C)NC(=O)[C@@H](NC(=O)[C@@H](N)Cc1ccc(O)cc1)C(C)C)C(=O)N[C@@H](Cc1ccccc1)C(=O)N[C@@H](CC(=O)O)C(=O)N[C@@H](CCCNC(=N)N)C(=O)N[C@@H](Cc1ccccc1)C(=O)NCC(N)=O  time to darkening (skin pigmentation; Anolis carolinensis; intraperitoneal, 2 µg/g): 1 min
Cc1cc(O)c(C=O)c2c1C(=O)Oc1c(CO)c(O)c3c(c1O2)C(O)OC3=O (centres unmarked)  seminiferous epithelium height (histopathology; rat, male, streptozotocin-induced diabetes, testis; 10 mg/kg, 9 weeks): 68.9 ± 4.93 µm
C=C(c1ccc(C(=O)O)c(F)c1)c1cc2c(cc1C)C(C)(C)C=CC2(C)C  log2 fold change (RNA sequencing, refers to: Alb mRNA; rat, brain; dose not given, 24 h, single dose; baseline: vehicle): -2.54
CC[C@H](C)[C@H](NC(=O)[C@H](CC(N)=O)NC(=O)[C@H](CC(N)=O)NC(=O)[C@H](CCCNC(=N)N)NC(=O)[C@H](CC(N)=O)NC(=O)[C@H](CCCNC(=N)N)NC(=O)[C@H](CCCCN)NC(=O)[C@@H](NC(=O)[C@H](CC(N)=O)NC(=O)[C@H](CCSC)NC(=O)[C@H](CC(C)C)NC(=O)[C@H](Cc1c[nH]c2ccccc12)NC(=O)[C@H](CCC(N)=O)NC(=O)[C@@H](NC(=O)[C@H](Cc1ccccc1)NC(=O)[C@H](CC(=O)O)NC(=O)[C@H](CCC(N)=O)NC(=O)[C@H](C)NC(=O)[C@H](CCCNC(=N)N)NC(=O)[C@H](CCCNC(=N)N)NC(=O)[C@H](CO)NC(=O)[C@H](CC(=O)O)NC(=O)[C@H](CC(C)C)NC(=O)[C@H](Cc1ccc(O)cc1)NC(=O)[C@H](CCCCN)NC(=O)[C@H](CO)NC(=O)[C@H](Cc1ccc(O)cc1)NC(=O)[C@H](CC(=O)O)NC(=O)[C@H](CO)NC(=O)[C@@H](NC(=O)[C@H](Cc1ccccc1)NC(=O)[C@@H](NC(=O)CNC(=O)[C@H](CCC(=O)O)NC(=O)[C@@H](CO)NC(=O)[C@@H](N)Cc1c[nH]cn1)[C@@H](C)O)[C@@H](C)O)C(C)C)[C@@H](C)O)C(=O)N[C@@H](C)C(=O)N[C@@H](CSCC(=O)NCCOCCOCCOCCOCCC(=O)O[C@H]1CC[C@@]2(C)C(=CC[C@H]3[C@@H]4CC[C@H]([C@H](C)CCCC(C)C)[C@@]4(C)CC[C@@H]32)C1)C(N)=O  free fatty acid level (diet-induced obese mice, plasma; subcutaneous, 1.9 µmol/kg, 14 days, chronic dosing): 0.3 mM
C=C(c1cc(F)c(C(=O)O)c(F)c1)c1cc2c(cc1C)C(C)(C)CCC2(C)C  log2 fold change (RNA sequencing, refers to: Sycp2; rat, brain; dose not given, 24 h; baseline: vehicle): -0.25
O=C(Nc1ccccc1)c1ccc(Nc2nnc(-c3ccc(O)cc3)c3ccccc23)cc1  plasma anandamide level (mice, plasma; intraperitoneal, 1 mg/kg): increased
CCC1CC2C(C)=CC3C(=O)CCCC3C=CC(C)=CC2C(=O)O1 (centres unmarked)  total soluble Aβ reduction (dot blot; 5XFAD transgenic mouse, hippocampus; oral, 30 mg/kg/day three times per week, 1 month, not significant; baseline: vehicle): 23.6%
CCCCOCc1cn(-c2cc(Cl)ccc2Cl)nn1  clotting time (aPTT; human plasma; 10 µM): 50.6 ± 10 s
CCOC(=O)C1=CN([C@@H]2O[C@H](CO)[C@@H](O)[C@H]2O)C=CC1  protein succinylation level (western blot; HEK293 mitochondrial lysate; concentration not given, with: SIRT5; baseline: no compound): decreased
CC(=O)c1cnc(N)nc1N1CC[C@H]1c1nn2ccc(Cl)c2c(=O)n1-c1ccccc1  inhibition (refers to: IFN-gamma; rat; oral, 10 mg/kg, up to 8 h, with: concanavalin A at 6.5 h): > 80% and 91%
O=S(=O)(c1ccccc1)N(CCc1nnc(S)o1)c1ccc(Cl)cc1  paw edema inhibition (rat; 200 mg/kg, 1 h, with: carrageenan): 51.6%
CCCCCCCOC(=O)Cc1c(C)n(C(=O)c2ccc(Cl)cc2)c2ccc(OC)cc12  latency of nociceptive response (hot plate test; BALB/c mice; 75 mg/kg, 30 min): 16.1 ± 1.25 s
O/N=C/c1cnn(-c2ccccc2)n1  clotting time (prothrombin time; human plasma; 1 µM): 15.4 ± 1 s
CC(C)[C@H](NC(=O)CN)C(=O)N[C@@H](CCCCN)C(=O)NCC(=O)N[C@@H](CC(=O)O)C(=O)N[C@@H](CCCCN)C(=O)NCC(=O)N[C@@H](CC(N)=O)C(=O)N1CCC[C@H]1C(=O)NCC(=O)N[C@@H](Cc1c[nH]c2ccccc12)C(=O)N1CCC[C@H]1C(=O)NCC(=O)N[C@@H](C)C(=O)N1CCC[C@H]1C(=O)O  cell adhesion (UV 2237 fibrosarcoma, mouse; 100 µg/mL coating, peptide-coated plates; baseline: input cells): 1.1%
COc1cc(/C=C/C(O)=C/C(=O)/C=C/c2ccc(O[C@@H]3O[C@H](C(=O)O)[C@@H](O)[C@H](O)[C@H]3O)c(OC)c2)ccc1O  NF-κB staining (immunohistochemistry; HCT-116 (KRAS mutant, TP53 null), mouse xenograft, tumour; ip, 90 mg/kg, day 21; baseline: control mice): decreased
CC(C)C1=C(OC(=O)C(C)(C)C)C(=O)C2=C(C=C[C@H]3C(C)(C)CCC[C@]23C)C1=O  ORAC (oxygen radical absorbance capacity, fluorometric): 0.826 Trolox equivalents
Cc1cc2c(c(=O)o1)C=C1CCC(C(C)CNCc3ccc(O)cc3)CC1O2 (centres unmarked)  LTP magnitude (5xFAD mouse, 15-16 months, hippocampal slices; intraperitoneal, 25 mg/kg single dose, 24 h): increased
C=C1C(=O)OC2C1CCC1(C)OC13CC1OC1(C)C23 (single isomer, unassigned)  tumour growth inhibition (Pliss lymphosarcoma, outbred white rat; intraperitoneal, maximum tolerated dose, daily, 5 days): 59 to 88%
CCc1nnc(NS(=O)(=O)c2ccc(NC(=S)NC(=O)/C=C/c3ccc(F)cc3)cc2)s1  IL-1β level (immunostaining; athymic nude mouse, BE(2)-C xenograft, tumour; ip, 20 mg/kg daily, 3 weeks): decreased
CCCCCCCCCC(=O)OCc1cn(-c2ccc(Cl)cc2)nn1  clotting time (plasma recalcification time; human plasma; 1 µM): 285 ± 20 s
CC[C@H]1[C@@H](O)[C@@H]2[C@H](CC[C@]3(C)[C@@H]([C@H](C)CCOS(=O)(=O)[O-])CC[C@@H]23)[C@@]2(C)CC[C@@H](O)C[C@@H]12.[Na+]  NAFLD activity score (histology; ob/ob NASH mouse model, liver; oral, 10 mg/kg once daily, before treatment, baseline of 8 week study; direction not given): 6.4 ± 0.2

For quick reference, copied from above:
CC(CCC(=O)NCc1ccc(C(=O)NO)cc1)C1CCC2C3C(O)CC4CC(O)CCC4(C)C3CCC12C (centres unmarked)  kidney to body weight ratio (PCK rats; oral gavage, 15 mg/kg/day, 5 months; baseline: untreated): decreased
O=C(/C=C/c1ccccc1)OCCCC[P+](c1ccccc1)(c1ccccc1)c1ccccc1  lipid peroxidation inhibition (TBARS; energized rat liver mitochondria; 6 µM, with: FeCl2/ascorbate): no effect
C[C@H]1CN(C(=O)c2cn(-c3ccnc(N)n3)c3cc(C#CC4(O)CCCCC4)ccc23)CCN1  mice with lung metastases (B16-BL6, mice, lung metastasis model; intravenous, 50 mg/kg daily): 9.2%
OCc1cnn(-c2ccccc2)n1  clotting time (plasma recalcification time; human plasma; 1 µM): 260 ± 10 s
